Published values gathered from unrelated publications.
Compare with care: the assays were run in different laboratories. Several values in a cell are separate wells, animals, samples, runs or records. ± gives the spread as reported.
Slc6a3: Sodium-dependent dopamine transporter (Slc6a3, Rattus norvegicus, UniProt P23977)
OPRM1: Mu-type opioid receptor (OPRM1, Homo sapiens, UniProt P35372)
Slc6a4: Sodium-dependent serotonin transporter (Slc6a4, Rattus norvegicus, UniProt P31652)

Chains of the proteins cited; added tags and fusions are not shown. Residues count along the entry.
UniProt P23977, whole entry: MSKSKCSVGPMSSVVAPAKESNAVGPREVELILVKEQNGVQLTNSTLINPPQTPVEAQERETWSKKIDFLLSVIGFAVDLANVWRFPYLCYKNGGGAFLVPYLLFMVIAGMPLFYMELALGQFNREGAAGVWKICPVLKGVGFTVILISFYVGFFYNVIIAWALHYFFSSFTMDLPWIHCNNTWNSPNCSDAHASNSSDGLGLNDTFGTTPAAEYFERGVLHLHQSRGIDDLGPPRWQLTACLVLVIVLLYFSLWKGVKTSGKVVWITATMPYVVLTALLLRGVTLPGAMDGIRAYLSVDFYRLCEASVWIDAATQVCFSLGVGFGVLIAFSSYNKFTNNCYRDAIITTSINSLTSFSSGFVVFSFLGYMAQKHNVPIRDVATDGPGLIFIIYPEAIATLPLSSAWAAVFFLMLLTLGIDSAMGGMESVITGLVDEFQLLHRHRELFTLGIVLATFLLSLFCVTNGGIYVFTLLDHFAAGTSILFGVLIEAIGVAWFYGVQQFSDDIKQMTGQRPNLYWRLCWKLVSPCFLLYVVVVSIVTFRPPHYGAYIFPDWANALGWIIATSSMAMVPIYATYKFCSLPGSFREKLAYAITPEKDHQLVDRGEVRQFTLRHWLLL
UniProt P31652, whole entry: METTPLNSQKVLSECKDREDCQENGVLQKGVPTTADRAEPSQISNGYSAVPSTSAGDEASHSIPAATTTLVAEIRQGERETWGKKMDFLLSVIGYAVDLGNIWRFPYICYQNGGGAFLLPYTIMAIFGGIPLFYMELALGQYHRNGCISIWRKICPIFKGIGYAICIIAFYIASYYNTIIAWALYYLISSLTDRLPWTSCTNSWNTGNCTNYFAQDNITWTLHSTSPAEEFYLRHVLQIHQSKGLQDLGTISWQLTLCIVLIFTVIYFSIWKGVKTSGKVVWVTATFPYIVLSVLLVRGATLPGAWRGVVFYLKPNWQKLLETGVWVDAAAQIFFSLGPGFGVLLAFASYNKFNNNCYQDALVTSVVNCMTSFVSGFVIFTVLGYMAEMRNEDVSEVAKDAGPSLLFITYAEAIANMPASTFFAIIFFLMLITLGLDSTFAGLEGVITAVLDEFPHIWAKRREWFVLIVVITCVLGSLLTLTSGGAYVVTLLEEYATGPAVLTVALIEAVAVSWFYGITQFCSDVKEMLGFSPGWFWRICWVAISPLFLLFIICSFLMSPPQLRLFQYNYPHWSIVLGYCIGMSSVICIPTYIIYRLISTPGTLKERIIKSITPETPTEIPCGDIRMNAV
UniProt P02708, 21-457 limits assumed: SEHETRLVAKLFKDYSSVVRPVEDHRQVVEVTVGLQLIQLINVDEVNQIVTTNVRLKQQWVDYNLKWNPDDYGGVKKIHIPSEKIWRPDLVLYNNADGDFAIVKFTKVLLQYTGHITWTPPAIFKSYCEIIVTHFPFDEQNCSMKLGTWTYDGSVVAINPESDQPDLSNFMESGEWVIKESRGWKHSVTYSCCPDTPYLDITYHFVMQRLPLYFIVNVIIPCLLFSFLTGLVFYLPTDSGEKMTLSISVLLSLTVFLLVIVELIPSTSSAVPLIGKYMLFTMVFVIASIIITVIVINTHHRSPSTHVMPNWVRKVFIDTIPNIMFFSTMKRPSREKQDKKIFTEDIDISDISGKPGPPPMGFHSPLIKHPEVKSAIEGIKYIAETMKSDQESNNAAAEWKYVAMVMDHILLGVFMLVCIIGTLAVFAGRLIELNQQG
UniProt Q07001, 22-517 limits assumed: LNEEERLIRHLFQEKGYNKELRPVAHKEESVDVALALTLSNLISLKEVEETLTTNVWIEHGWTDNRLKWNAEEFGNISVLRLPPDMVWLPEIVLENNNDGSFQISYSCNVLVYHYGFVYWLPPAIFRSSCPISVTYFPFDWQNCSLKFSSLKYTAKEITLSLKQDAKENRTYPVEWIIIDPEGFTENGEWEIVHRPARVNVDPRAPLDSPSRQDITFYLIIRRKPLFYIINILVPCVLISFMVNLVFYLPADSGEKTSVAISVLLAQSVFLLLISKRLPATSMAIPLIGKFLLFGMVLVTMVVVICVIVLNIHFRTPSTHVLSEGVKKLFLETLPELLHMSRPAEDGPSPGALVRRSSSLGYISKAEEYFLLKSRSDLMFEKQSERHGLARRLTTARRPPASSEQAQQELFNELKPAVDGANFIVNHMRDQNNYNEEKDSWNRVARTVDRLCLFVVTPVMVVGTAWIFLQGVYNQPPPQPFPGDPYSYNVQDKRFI
UniProt P33535, whole entry: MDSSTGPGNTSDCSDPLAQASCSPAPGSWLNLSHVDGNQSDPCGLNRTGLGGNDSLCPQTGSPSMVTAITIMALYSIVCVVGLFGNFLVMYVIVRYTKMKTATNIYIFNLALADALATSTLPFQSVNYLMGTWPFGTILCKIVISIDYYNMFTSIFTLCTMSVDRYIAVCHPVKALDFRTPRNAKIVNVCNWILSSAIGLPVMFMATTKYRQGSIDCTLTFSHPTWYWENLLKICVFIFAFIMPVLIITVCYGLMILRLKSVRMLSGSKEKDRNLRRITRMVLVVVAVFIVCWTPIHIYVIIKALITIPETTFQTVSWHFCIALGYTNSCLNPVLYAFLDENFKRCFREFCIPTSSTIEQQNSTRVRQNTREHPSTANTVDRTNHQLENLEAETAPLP
UniProt Q9NRD9, whole entry, looked up: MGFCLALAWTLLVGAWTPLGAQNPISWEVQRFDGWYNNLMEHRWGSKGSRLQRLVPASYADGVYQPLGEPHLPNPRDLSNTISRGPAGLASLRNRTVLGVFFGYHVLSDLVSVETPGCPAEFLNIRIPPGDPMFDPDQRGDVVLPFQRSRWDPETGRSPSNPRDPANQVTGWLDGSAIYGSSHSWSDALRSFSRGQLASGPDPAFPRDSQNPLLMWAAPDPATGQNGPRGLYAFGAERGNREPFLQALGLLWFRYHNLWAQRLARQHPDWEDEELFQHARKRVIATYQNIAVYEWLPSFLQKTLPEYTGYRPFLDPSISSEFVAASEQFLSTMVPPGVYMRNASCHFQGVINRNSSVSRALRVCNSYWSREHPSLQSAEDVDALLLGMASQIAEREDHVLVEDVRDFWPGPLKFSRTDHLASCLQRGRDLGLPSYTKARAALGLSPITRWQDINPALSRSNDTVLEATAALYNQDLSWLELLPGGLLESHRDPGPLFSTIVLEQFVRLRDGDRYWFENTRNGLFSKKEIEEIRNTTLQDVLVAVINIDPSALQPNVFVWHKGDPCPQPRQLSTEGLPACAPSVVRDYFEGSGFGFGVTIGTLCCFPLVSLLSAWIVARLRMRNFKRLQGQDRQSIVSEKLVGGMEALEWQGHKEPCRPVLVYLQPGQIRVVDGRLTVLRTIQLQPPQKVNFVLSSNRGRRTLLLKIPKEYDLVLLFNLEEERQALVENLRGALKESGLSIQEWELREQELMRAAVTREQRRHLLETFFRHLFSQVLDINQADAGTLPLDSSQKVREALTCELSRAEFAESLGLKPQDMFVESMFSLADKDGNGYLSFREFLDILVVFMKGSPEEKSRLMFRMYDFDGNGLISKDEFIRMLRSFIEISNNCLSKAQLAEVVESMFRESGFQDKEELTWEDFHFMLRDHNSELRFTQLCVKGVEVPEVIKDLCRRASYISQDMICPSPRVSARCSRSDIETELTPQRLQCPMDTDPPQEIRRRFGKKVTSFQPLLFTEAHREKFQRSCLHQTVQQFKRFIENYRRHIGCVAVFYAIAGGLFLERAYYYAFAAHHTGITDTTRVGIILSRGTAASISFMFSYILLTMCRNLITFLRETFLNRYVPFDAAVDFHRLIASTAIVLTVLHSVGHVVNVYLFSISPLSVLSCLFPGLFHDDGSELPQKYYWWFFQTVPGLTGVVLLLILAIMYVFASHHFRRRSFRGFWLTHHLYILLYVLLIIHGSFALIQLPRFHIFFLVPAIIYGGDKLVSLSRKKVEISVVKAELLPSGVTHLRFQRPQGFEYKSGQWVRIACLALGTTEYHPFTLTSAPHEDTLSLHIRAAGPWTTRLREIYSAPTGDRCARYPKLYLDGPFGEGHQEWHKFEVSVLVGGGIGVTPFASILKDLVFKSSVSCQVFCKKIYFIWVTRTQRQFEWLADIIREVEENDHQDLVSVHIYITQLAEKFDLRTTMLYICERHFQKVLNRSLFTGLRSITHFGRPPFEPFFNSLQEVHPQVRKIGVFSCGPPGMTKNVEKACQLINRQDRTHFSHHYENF
UniProt P21462, whole entry R190W: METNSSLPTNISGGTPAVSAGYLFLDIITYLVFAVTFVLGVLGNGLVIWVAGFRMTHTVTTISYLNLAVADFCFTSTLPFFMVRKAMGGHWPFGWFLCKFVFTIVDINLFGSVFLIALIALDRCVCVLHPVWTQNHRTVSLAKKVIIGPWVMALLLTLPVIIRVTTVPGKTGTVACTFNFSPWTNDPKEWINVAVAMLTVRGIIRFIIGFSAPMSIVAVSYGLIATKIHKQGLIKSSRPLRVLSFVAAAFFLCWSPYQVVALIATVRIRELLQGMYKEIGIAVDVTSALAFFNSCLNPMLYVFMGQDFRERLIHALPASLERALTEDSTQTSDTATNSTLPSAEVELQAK
UniProt P67660, whole entry S267Q, looked up: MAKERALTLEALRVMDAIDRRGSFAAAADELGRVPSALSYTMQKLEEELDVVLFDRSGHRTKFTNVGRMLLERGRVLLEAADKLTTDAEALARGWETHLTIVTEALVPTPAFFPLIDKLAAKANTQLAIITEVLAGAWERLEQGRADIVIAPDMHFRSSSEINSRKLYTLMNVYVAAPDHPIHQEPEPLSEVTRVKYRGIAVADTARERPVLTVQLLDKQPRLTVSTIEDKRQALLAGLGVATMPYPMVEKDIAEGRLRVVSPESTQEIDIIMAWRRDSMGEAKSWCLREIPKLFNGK
UniProt P28472, whole entry, looked up: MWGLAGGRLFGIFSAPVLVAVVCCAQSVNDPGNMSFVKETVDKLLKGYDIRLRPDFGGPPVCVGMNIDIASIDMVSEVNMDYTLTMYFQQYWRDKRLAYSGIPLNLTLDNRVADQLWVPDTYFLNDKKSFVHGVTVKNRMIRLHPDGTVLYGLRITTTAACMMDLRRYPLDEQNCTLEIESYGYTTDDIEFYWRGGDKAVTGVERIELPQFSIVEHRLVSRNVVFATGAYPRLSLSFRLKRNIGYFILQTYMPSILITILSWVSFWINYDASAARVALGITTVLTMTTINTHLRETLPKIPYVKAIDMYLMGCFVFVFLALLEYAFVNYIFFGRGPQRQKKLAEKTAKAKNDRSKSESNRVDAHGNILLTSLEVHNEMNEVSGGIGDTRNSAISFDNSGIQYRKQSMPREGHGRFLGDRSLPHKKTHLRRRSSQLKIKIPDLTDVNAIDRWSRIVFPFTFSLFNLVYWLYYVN
UniProt P41144, whole entry: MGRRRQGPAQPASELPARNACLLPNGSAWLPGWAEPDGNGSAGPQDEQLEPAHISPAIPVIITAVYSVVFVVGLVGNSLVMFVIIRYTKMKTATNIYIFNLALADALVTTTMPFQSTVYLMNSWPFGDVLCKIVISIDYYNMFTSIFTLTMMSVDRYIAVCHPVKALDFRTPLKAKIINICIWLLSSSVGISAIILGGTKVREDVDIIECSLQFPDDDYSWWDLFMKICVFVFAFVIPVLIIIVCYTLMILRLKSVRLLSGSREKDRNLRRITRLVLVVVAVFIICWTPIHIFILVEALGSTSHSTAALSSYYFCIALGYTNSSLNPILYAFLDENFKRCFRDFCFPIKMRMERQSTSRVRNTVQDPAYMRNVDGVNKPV
UniProt P08173, whole entry: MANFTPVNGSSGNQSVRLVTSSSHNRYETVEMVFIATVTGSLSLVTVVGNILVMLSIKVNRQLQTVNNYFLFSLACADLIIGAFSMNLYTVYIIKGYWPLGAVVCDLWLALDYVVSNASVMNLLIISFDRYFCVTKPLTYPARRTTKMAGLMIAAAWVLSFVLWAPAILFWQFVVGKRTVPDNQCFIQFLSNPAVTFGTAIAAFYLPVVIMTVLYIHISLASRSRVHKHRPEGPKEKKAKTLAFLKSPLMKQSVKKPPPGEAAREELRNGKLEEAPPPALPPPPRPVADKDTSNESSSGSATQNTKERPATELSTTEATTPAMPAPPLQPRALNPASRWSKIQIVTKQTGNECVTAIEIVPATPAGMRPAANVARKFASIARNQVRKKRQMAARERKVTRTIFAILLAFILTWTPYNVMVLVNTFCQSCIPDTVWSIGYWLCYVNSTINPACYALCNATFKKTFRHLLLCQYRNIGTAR
UniProt P33534, whole entry: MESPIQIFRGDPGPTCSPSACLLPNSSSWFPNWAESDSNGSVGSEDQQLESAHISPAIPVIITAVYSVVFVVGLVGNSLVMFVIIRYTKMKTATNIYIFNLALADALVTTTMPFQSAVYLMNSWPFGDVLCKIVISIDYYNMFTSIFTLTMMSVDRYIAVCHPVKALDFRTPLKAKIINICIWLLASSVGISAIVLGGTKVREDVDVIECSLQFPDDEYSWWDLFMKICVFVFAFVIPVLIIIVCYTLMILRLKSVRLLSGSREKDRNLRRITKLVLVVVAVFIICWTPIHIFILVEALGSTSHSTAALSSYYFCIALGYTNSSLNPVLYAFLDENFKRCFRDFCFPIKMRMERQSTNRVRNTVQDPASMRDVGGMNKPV

Molecule = O=C(C1CC1)N1CC2CC(C1)N2; target = CHRNA1/CHRNG/CHRND, with beta1 subunit (Homo sapiens, UniProt P02708+P07510+Q07001); test = binding; system = TE-671, membranes; conditions = together with: [3H]epibatidine; endpoint = Ki; value = 0.47 ± 0.086 µM
Molecule = COc1cccc2c(CCN)c[nH]c12; target = Slc6a3; test = dopamine release, releaser; system = rat brain synaptosomes; endpoint = EC50; value = 2.12 ± 0.088 µM
Molecule = CC[C@@](O)(c1ccccc1)[C@H]1C[C@@]23CC[C@]1(OC)[C@@H]1Oc4c(O)ccc5c4[C@@]12CCN(CC1CC1)[C@@H]3C5; target = OPRM1; test = binding, radioligand displacement; system = CHO; conditions = together with: [3H]DAMGO; endpoint = Ki; value = 0.001 ± 0.00015 µM
Molecule = [3H]diprenorphine; target = Mu-type opioid receptor (Oprm1, Rattus norvegicus, UniProt P33535); test = radioligand, saturation binding; system = N2a cell membranes; conditions = 1 h, pH 7.4, room temperature, together with: [3H]diprenorphine; endpoint = Kd; value = 0.00012 ± 2e-05 µM
Molecule = CC(C)c1ccc2nc(Sc3ncnc4c3nnn4Cc3ccccc3)oc2c1; target = DUOX1 (Homo sapiens, UniProt Q9NRD9); test = enzyme activity, inhibitor, Amplex Red; system = cell-free membranes; endpoint = IC50; value = > 15 µM
Molecule = NCCc1c[nH]c2cc(F)ccc12; target = Slc6a3; test = dopamine release, releaser; system = rat brain synaptosomes; endpoint = EC50; value = 0.106 ± 0.004 µM
Molecule = CC#C/C(=N\OC[C@H]1COCCN1)c1ccc2ncnc(Nc3ccc(OCc4cccc(F)c4)c(Cl)c3)c2c1; target = Tyrosine-protein kinase receptor TYRO3 (TYRO3, Homo sapiens, UniProt Q06418); test = kinase activity; conditions = 10 µM; endpoint = inhibition; value = 42.8%
Molecule = CC[C@H](C)[C@H](NC(=O)[C@H](Cc1c[nH]c2ccccc12)NC(=O)[C@H](CCC(N)=O)NC(=O)[C@H](CCCNC(=N)N)NC(=O)[C@H](Cc1c[nH]c2ccccc12)NC(=O)CNC(=O)[C@@H](NC(=O)[C@H](Cc1c[nH]c2ccccc12)NC(=O)[C@H](Cc1c[nH]c2ccccc12)NC(=O)[C@H](CC(N)=O)NC(=O)[C@H](CC(=O)O)NC(=O)[C@@H](N)CC(N)=O)[C@@H](C)O)C(=O)O; target = fMet-Leu-Phe receptor (FPR1, Homo sapiens, UniProt P21462, R190W); test = binding, competition binding; conditions = 4 °C, together with: formyl-Nle-Leu-Phe-Nle-Tyr-Lys-FITC 0.3 nM; endpoint = Ki; value = 1.2 ± 0.15 µM
Molecule = Cc1ccc2c(CCN)c[nH]c2c1; target = Slc6a3; test = dopamine release, releaser; system = rat brain synaptosomes; endpoint = EC50; value = 0.353 µM and < 0.5 µM
Molecule = CCN1CCN(Cc2ccc(NC(=O)c3ccc(C)c(/C=C/c4cnc5[nH]ccc5c4OC)c3)cc2C(F)(F)F)CC1; target = CCDC6-RET fusion; test = kinase-CDC37 interaction, inhibitor; system = human cells; conditions = 5 µM; how to read = baseline: vehicle; endpoint = log2 fold change; value = -0.391
Molecule = Cc1cc(O)ccc1O; target = Probable HTH-type transcriptional regulator YhaJ, effector-binding domain (yhaJ, Escherichia coli, UniProt P67660, S267Q); test = microscale thermophoresis; conditions = pH 7.5; endpoint = Kd; value = 8400 ± 2200 µM
Molecule = C=C(C)[C@@H]1[C@H]2OC(=O)[C@@H]1[C@]1(O)C[C@H]3O[C@]34C(=O)O[C@H]2[C@]14C; target = GABRB3/Gamma-aminobutyric acid receptor subunit alpha-2 (Homo sapiens, UniProt P28472+P47869); test = chloride current, inhibitor, whole-cell voltage clamp; system = L929; conditions = 3 min preincubation, together with: GABA at EC90; endpoint = IC50; value = 1.98 µM
Molecule = NCCc1c[nH]c2ccc(F)cc12; target = Slc6a4; test = serotonin release, releaser; system = rat brain synaptosomes; endpoint = EC50; value = 0.0101 ± 0.0009 µM
Molecule = CO[C@]12C=C[C@@]3(C[C@@H]1[C@@H](O)c1ccccc1)[C@H]1Cc4ccc(O)c5c4[C@@]3(CCN1CC1CC1)[C@H]2O5; target = Kappa-type opioid receptor (OPRK1, Cavia porcellus, UniProt P41144); test = binding, radioligand displacement; system = guinea pig brain membranes; conditions = together with: [3H]U-69593; endpoint = Ki; value = 0.0015 ± 0.00095 µM
Molecule = CC[C@H](N)Cc1c[nH]c2ccccc12; target = Slc6a4; test = serotonin release, releaser; system = rat brain synaptosomes; endpoint = EC50; value = 0.0549 ± 0.0078 µM
Molecule = CO[C@]12CC[C@@]3(C[C@@H]1[C@@](C)(O)c1ccncc1)[C@H]1Cc4ccc(O)c5c4[C@@]3(CCN1CC1CC1)[C@H]2O5; target = Kappa-type opioid receptor (OPRK1, Homo sapiens, UniProt P41145); test = binding, radioligand displacement; system = CHO; conditions = together with: [3H]diprenorphine; endpoint = Ki; value = 0.00039 ± 9e-05 µM
Molecule = NCCc1c[nH]c2ccc(Cl)cc12; target = Slc6a4; test = serotonin release, releaser; system = rat brain synaptosomes; endpoint = EC50; value = 0.0191 ± 0.0029 µM
Molecule = CO[C@]12CC[C@@]3(C[C@@H]1[C@@H](O)c1ccccc1)[C@H]1Cc4ccc(O)c5c4[C@@]3(CCN1CC1CC1)[C@H]2O5; target = Delta-type opioid receptor (OPRD1, Homo sapiens, UniProt P41143); test = binding, radioligand displacement; system = CHO; conditions = together with: [3H]DPDPE; endpoint = Ki; value = 0.0013 ± 0.00036 µM
Molecule = Cc1cccc2oc(Sc3ncnc4c3nnn4Cc3ccccc3)nc12; target = NADPH oxidase 2 (CYBB, Homo sapiens, UniProt P04839); test = enzyme activity, inhibitor, MCLA chemiluminescence; system = cell-free membranes; endpoint = IC50; value = > 100 µM
Molecule = CO[C@]12CC[C@@]3(C[C@@H]1[C@@](C)(O)C(C)(C)C)[C@H]1Cc4c(Br)cc(O)c5c4[C@@]3(CCN1CC1CC1)[C@H]2O5; target = OPRM1; test = radioligand binding; system = CHO; conditions = together with: [3H]DAMGO; endpoint = Ki; value = 0.0143 ± 0.00088 µM
Molecule = CCCN1CCN(c2ccc3c(c2)C2CC3CCN2C(=O)OCc2ccccc2)CC1 (stereo not shown); target = Muscarinic acetylcholine receptor M4 (CHRM4, Homo sapiens, UniProt P08173); test = binding, radioligand binding; endpoint = Ki; value = 1.63 µM
Molecule = CO[C@]12CC[C@@]3(C[C@@H]1[C@](C)(O)c1ccccc1C)[C@H]1Cc4ccc(O)c5c4[C@@]3(CCN1CC1CC1)[C@H]2O5; target = Kappa-type opioid receptor (OPRK1, Homo sapiens, UniProt P41145); test = binding, radioligand displacement; system = CHO; conditions = together with: [3H]diprenorphine; endpoint = Ki; value = 0.00016 ± 9e-05 µM
Molecule = Fc1ccc2nc(Sc3ncnc4c3nnn4Cc3ccccc3)oc2c1; target = NADPH oxidase 4 (NOX4, Homo sapiens, UniProt Q9NPH5); test = enzyme activity, inhibitor, Amplex Red; system = cell-free membranes; endpoint = IC50; value = > 100 µM
Molecule = NCCc1c[nH]c2c(Cl)cccc12; target = Slc6a3; test = dopamine release, releaser; system = rat brain synaptosomes; endpoint = EC50; value = 1.33 ± 0.061 µM
Molecule = CN(C(=O)Cc1cccc2occc12)[C@H]1CC[C@@]2(CCCO2)C[C@@H]1N1CCCC1; target = Kappa-type opioid receptor (Oprk1, Mus musculus, UniProt P33534); test = agonist; conditions = mouse receptor; endpoint = EC50; value = 0.00048 µM

For quick reference, copied from above:
Molecule = CC[C@H](C)[C@H](NC(=O)[C@H](Cc1c[nH]c2ccccc12)NC(=O)[C@H](CCC(N)=O)NC(=O)[C@H](CCCNC(=N)N)NC(=O)[C@H](Cc1c[nH]c2ccccc12)NC(=O)CNC(=O)[C@@H](NC(=O)[C@H](Cc1c[nH]c2ccccc12)NC(=O)[C@H](Cc1c[nH]c2ccccc12)NC(=O)[C@H](CC(N)=O)NC(=O)[C@H](CC(=O)O)NC(=O)[C@@H](N)CC(N)=O)[C@@H](C)O)C(=O)O; target = fMet-Leu-Phe receptor (FPR1, Homo sapiens, UniProt P21462, R190W); test = binding, competition binding; conditions = 4 °C, together with: formyl-Nle-Leu-Phe-Nle-Tyr-Lys-FITC 0.3 nM; endpoint = Ki; value = 1.2 ± 0.15 µM
Molecule = CC[C@H](N)Cc1c[nH]c2ccccc12; target = Slc6a4; test = serotonin release, releaser; system = rat brain synaptosomes; endpoint = EC50; value = 0.0549 ± 0.0078 µM
Molecule = CC[C@@](O)(c1ccccc1)[C@H]1C[C@@]23CC[C@]1(OC)[C@@H]1Oc4c(O)ccc5c4[C@@]12CCN(CC1CC1)[C@@H]3C5; target = OPRM1; test = binding, radioligand displacement; system = CHO; conditions = together with: [3H]DAMGO; endpoint = Ki; value = 0.001 ± 0.00015 µM
Molecule = CO[C@]12CC[C@@]3(C[C@@H]1[C@@](C)(O)C(C)(C)C)[C@H]1Cc4c(Br)cc(O)c5c4[C@@]3(CCN1CC1CC1)[C@H]2O5; target = OPRM1; test = radioligand binding; system = CHO; conditions = together with: [3H]DAMGO; endpoint = Ki; value = 0.0143 ± 0.00088 µM
